Experimental data gathered from unrelated publications.
Numbered parts are unrelated; each lists some results of a single study. “And” joins repeats or separate records; there may be more than shown.
Chain of UniProt Q8IY84 (whole entry, looked up): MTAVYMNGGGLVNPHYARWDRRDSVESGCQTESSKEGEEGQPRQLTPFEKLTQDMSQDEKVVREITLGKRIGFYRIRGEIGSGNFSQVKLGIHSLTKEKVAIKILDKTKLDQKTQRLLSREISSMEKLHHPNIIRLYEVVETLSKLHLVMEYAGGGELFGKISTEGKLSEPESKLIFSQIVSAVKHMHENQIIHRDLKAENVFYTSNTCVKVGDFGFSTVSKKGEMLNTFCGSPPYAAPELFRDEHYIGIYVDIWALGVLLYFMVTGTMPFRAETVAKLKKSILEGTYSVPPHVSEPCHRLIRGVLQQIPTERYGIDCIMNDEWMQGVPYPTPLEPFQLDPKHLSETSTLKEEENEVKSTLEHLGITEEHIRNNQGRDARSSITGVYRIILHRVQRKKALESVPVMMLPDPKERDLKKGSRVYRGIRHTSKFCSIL
Chain of UniProt P49674 (whole entry, looked up): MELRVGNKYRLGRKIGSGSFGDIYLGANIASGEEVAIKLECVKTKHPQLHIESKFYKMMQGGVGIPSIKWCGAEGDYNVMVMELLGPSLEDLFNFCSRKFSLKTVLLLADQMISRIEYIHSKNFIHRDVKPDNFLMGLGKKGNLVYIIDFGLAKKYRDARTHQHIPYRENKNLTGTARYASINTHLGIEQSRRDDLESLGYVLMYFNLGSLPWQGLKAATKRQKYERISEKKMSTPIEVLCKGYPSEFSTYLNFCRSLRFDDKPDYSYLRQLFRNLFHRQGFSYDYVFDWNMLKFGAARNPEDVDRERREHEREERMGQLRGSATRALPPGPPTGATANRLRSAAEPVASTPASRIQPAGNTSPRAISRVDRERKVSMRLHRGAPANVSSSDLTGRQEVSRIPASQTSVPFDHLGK
Chain of UniProt P07948 (whole entry, looked up): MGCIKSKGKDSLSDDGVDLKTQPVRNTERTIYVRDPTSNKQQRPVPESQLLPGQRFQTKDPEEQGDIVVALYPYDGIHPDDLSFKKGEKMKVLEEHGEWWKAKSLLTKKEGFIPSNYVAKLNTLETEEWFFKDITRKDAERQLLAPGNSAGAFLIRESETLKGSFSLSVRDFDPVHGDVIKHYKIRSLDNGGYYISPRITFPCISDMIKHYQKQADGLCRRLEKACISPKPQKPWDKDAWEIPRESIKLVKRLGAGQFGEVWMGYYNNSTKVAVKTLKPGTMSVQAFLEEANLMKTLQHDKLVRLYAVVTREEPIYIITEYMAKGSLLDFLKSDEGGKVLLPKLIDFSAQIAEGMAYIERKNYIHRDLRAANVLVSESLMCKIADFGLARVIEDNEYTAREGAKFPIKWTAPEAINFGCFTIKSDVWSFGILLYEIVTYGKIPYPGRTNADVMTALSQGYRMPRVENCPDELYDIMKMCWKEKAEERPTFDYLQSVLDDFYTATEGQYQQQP
Chain of UniProt Q13043 (whole entry, looked up): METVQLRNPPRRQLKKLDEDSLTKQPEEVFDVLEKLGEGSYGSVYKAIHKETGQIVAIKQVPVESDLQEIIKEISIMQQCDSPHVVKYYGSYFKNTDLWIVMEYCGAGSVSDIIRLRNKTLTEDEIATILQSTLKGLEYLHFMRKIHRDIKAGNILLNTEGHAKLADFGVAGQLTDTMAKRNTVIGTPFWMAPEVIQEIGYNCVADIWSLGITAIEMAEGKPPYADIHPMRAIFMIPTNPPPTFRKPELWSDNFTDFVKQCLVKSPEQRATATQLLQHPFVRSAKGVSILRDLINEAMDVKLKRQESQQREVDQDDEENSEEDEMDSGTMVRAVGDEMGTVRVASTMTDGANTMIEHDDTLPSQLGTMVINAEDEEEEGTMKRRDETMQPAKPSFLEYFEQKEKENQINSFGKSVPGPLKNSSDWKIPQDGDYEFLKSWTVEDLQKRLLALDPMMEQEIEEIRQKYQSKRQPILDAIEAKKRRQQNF
Chain of UniProt P51813 (whole entry, looked up): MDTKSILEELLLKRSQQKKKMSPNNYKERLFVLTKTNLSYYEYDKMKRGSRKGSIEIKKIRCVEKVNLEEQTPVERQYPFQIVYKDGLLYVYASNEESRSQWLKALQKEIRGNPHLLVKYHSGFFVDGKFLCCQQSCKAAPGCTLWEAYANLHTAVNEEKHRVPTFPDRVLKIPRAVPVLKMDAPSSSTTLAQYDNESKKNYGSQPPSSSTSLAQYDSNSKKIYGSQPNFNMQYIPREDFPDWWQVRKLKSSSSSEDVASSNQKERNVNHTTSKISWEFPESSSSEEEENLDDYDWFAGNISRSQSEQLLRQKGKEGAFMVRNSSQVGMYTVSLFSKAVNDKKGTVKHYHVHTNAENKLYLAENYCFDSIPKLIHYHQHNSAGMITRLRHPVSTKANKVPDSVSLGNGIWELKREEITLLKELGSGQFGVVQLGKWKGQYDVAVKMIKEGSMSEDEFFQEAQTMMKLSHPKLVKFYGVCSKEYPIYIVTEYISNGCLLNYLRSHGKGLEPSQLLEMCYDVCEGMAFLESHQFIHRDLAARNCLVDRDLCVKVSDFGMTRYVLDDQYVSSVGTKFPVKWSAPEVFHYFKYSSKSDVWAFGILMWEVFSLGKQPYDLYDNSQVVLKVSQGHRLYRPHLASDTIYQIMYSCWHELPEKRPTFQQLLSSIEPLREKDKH
Chain of UniProt O75747 (whole entry, looked up): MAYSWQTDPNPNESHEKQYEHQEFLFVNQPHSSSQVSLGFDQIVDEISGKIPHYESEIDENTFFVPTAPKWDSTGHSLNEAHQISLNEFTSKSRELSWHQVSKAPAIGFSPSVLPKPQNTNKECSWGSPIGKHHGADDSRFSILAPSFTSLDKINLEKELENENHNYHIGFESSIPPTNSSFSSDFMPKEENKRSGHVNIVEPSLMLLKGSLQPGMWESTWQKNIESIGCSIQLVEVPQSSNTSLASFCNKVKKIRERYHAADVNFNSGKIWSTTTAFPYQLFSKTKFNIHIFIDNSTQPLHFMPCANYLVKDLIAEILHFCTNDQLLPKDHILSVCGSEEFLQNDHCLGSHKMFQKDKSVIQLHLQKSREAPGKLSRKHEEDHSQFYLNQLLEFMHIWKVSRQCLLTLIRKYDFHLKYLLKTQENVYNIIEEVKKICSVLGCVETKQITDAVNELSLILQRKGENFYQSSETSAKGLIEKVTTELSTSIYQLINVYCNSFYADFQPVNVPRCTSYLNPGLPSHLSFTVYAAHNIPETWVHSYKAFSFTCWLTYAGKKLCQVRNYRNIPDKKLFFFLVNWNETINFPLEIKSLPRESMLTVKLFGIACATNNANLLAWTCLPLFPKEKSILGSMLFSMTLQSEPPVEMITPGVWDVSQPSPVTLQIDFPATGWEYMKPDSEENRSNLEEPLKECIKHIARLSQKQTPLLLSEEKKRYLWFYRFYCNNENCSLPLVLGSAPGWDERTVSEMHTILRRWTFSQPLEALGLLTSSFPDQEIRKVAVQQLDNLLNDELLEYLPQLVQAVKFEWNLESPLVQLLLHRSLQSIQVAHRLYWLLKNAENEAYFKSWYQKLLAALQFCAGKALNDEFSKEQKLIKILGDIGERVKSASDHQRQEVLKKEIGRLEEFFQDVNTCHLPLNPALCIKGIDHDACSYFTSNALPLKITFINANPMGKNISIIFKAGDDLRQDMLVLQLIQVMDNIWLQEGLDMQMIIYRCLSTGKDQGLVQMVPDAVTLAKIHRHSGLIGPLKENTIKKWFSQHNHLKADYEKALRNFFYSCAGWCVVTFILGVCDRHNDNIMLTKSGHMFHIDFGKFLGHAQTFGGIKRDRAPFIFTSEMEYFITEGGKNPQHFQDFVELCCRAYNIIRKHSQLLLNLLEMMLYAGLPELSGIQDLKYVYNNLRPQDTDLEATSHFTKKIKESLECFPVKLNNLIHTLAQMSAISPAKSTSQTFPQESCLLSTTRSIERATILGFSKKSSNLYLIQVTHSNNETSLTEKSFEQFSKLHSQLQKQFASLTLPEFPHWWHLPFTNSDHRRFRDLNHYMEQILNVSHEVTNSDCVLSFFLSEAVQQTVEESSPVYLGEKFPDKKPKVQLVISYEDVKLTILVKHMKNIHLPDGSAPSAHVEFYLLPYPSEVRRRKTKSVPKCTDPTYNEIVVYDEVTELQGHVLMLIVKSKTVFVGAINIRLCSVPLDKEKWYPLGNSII

Series 1
Target: Alpha-2A adrenergic receptor (ADRA2A, Homo sapiens, UniProt P08913)
Chain of UniProt P08913 (whole entry, looked up): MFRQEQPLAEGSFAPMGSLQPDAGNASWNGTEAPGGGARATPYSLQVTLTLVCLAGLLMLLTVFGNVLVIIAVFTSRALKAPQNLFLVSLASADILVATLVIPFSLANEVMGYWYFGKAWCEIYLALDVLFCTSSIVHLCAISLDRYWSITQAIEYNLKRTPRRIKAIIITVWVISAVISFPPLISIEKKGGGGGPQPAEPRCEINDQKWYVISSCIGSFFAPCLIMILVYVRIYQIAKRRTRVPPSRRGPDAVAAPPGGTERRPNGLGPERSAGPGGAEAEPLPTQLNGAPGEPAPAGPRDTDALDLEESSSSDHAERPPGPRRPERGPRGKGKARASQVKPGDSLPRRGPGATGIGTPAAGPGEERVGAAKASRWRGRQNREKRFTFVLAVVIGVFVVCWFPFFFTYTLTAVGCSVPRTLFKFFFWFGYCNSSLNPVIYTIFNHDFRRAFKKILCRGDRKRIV
Read-out: binding
Technique: radioligand binding
Concentration: 10 µM
SMILES	inhibition
O=C(O)c1cc(-c2ccc(C3CCNCC3)cc2)c2ccc(-c3ccc(C(F)(F)F)cc3)cc2c1	38.2%
CNC(=O)c1ccc(Nc2ncc(C(F)(F)F)c(NCc3nccnc3N(C)S(C)(=O)=O)n2)cc1	9.61%
O=C1c2ccc(Nc3ccc(F)cc3F)cc2CCc2ccc(OC[C@H](O)CO)cc21	39.6%
Cc1nc(N2CC[C@@H](O)C2)ncc1-c1cc(C(F)(F)F)cc2[nH]ncc12	10.6%
CN([C@@H]1CCc2c(CC(=O)O)c3cc(S(C)(=O)=O)ccc3n2C1)S(=O)(=O)c1ccc(F)cc1	-10.6%
COCc1nc2cnc3cc(-c4c(C)noc4C)c(OC[C@H]4CCNC4)cc3c2n1[C@H](C)c1ccccc1	9.95%
Cc1c(NC(=O)c2cc(C(N)=O)nc3cc(F)ccc23)c(C(F)(F)F)nn1Cc1ccc(C(C)(C)C)cc1	23.1%
Cc1nccc(COC(=O)N2C[C@@H]3[C@@H](CNC(=O)c4ccc5[nH]nnc5c4)[C@@H]3C2)n1	2.2%
CN1C(=O)[C@@H](N2CCc3cn(Cc4ccccc4)nc3C2=O)COc2ccccc21	19.1%
CS(=O)(=O)NCC[C@H](NC(=O)c1cncc2c1cnn2-c1ccc(F)cc1)c1ccnc(S(C)(=O)=O)c1	3.49%
Cc1nc(Cc2cccc(C(F)(F)F)c2)sc1-c1ccc(C(N)=O)nc1	4.44%
O=C(NC[C@@H]1[C@H]2CN(C(=O)OCc3cc(C(F)(F)F)cc(C(F)(F)F)c3)C[C@@H]12)c1ccc2[nH]nnc2c1	14.3%
COCCc1ccc(-c2c(C)nc3c(N4CCOCC4)ccnn23)cn1	-15.2%
Cc1c[nH]c2nccc(Oc3c(F)cc(Nc4cc(Cl)nc(N)n4)cc3F)c12	-10.1%
Cc1cc(-n2nc(Cc3cc(F)cc(C(F)(F)F)c3)nc2C)ccc1C(N)=O	8.93%
C[C@@H]1CN(c2cc(-c3nn(C)c4ccc(OC5(C)CC5)cc34)ncn2)C[C@H](C)O1	12.9%
COc1cccc(CNC(=O)c2nc3scc(COCc4ccc(C(=O)O)cc4)c3c(=O)[nH]2)c1	17.2%

Series 2
Cell line: mouse MPNST tumor cells
Technique: high-content immunofluorescence imaging
Measured: nuclear SOX9
Concentration: 10 µM
Time: 12 h
Notes: mean of 2 replicates
Baseline: DMSO control
Reading: higher = more nuclear SOX9
SMILES	nuclear SOX9 intensity
CC(C)c1ccc(NC(=O)c2cccs2)c(-c2nc3ccccc3[nH]c2=O)c1	101 % of DMSO
CCN(CC)CCOC(=O)c1ccc(N)cc1	94.3 % of DMSO
Cc1ccc(C)c(Oc2ccncc2C(=O)N2CCN(C3CC3)c3ccccc32)c1	113 % of DMSO
O=C(O)c1n[nH]c2c1CC1CC21 (centres unmarked)	94.6 % of DMSO
CN(C)CCOC(C)(c1ccccc1)c1ccccn1 (centres unmarked)	108 % of DMSO

Series 3
Structure (SMILES): CN1CCC[C@H]1COc1nc2c(c(N3CCN(S(C)(=O)=O)[C@@H](CC#N)C3)n1)CCN(c1cccc3cccc(Cl)c13)C2
Read-out: binding
Action: competitor
Technique: NanoBRET
Cells: HEK293
KRAS G12D: GTPase KRas (KRAS, Homo sapiens, UniProt P01116, G12D)
target	conditions	normalized BRET
GTPase KRas (KRAS, Homo sapiens, UniProt P01116, Q61H)	45.7 nM	89.7% and 82.7% and 100%
KRAS G12D	3.7 µM	69.8% and 80.5% and 84.7%
KRAS G12D	1.69 nM	102% and 88.5% and 101%
GTPase KRas (KRAS, Homo sapiens, UniProt P01116, Q61R)	1.24 µM	91.2% and 77% and 71.6%
GTPase KRas (KRAS, Homo sapiens, UniProt P01116, Q61L)	1.24 µM	43.2% and 41.2% and 51.3%

Series 4
Compound: C[C@H]1CC[C@H](n2c3cnccc3c3cnc(Nc4ccc5c(n4)CCN(C(=O)CO)C5)nc32)CC1
Concentration: 1 µM
target	test	remaining binding [%]
Casein kinase I isoform epsilon (CSNK1E, Homo sapiens, UniProt P49674)	binding, competition with immobilised ligand	26
Hepatocyte growth factor receptor (MET, Homo sapiens, UniProt P08581)	binding	77
Serine/threonine-protein kinase 4 (STK4, Homo sapiens, UniProt Q13043)	binding, competition with immobilised ligand	100
Phosphatidylinositol 3-kinase C2 domain-containing subunit gamma (PIK3C2G, Homo sapiens, UniProt O75747)	binding	100
Tyrosine-protein kinase Lyn (LYN, Homo sapiens, UniProt P07948)	cell-free assay, competition with immobilised ligand	76
Serine/threonine-protein kinase NIM1 (NIM1K, Homo sapiens, UniProt Q8IY84)	binding	100
Mast/stem cell growth factor receptor Kit (KIT, Homo sapiens, UniProt P10721)	binding, competition with immobilised ligand	14
Cytoplasmic tyrosine-protein kinase BMX (BMX, Homo sapiens, UniProt P51813)	binding, competition with immobilised ligand	82

For quick reference, copied from above (series 3):
target	conditions	normalized BRET
GTPase KRas (KRAS, Homo sapiens, UniProt P01116, Q61H)	45.7 nM	89.7% and 82.7% and 100%
KRAS G12D	3.7 µM	69.8% and 80.5% and 84.7%
KRAS G12D	1.69 nM	102% and 88.5% and 101%
GTPase KRas (KRAS, Homo sapiens, UniProt P01116, Q61R)	1.24 µM	91.2% and 77% and 71.6%
GTPase KRas (KRAS, Homo sapiens, UniProt P01116, Q61L)	1.24 µM	43.2% and 41.2% and 51.3%
